# Experimental data from different studies.
# Numbers after ± are the reported error.
# 4'-phosphopantetheinyl transferase PptT: 4'-phosphopantetheinyl transferase PptT (Mycobacterium tuberculosis, UniProt O33336)
# Sequence of UniProt O33336 (whole entry, looked up): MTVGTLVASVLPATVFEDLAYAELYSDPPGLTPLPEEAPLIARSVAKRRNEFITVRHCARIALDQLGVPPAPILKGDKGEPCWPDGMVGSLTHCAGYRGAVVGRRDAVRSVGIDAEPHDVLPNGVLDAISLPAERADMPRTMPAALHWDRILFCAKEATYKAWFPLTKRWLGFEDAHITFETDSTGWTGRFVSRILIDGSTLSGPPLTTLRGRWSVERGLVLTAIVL
# folA: Dihydrofolate reductase (folA, Mycobacterium tuberculosis, UniProt P9WNX1)
# Sequence of UniProt P9WNX1 (whole entry, looked up): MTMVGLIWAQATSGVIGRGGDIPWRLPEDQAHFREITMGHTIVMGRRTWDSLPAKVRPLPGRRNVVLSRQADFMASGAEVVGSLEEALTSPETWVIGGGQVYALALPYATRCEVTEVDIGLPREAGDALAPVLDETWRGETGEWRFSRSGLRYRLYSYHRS
# eis: N-acetyltransferase Eis (eis, Mycobacterium tuberculosis, UniProt P9WFK7)
# Sequence of UniProt P9WFK7 (whole entry, looked up): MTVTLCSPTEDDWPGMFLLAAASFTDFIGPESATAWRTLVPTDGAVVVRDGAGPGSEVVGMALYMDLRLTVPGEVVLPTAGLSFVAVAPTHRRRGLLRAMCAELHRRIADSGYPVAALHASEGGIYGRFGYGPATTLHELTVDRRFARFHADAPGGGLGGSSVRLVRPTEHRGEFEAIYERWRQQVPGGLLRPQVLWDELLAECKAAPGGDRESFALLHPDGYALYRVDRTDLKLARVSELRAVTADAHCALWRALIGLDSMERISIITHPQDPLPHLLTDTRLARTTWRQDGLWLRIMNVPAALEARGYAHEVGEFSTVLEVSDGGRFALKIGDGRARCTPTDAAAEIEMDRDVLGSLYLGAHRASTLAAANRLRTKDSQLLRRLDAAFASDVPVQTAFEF
# E3 ubiquitin-protein ligase CBL-C: E3 ubiquitin-protein ligase CBL-C (Homo sapiens, UniProt Q9ULV8)
# Sequence of UniProt Q9ULV8 (whole entry, looked up): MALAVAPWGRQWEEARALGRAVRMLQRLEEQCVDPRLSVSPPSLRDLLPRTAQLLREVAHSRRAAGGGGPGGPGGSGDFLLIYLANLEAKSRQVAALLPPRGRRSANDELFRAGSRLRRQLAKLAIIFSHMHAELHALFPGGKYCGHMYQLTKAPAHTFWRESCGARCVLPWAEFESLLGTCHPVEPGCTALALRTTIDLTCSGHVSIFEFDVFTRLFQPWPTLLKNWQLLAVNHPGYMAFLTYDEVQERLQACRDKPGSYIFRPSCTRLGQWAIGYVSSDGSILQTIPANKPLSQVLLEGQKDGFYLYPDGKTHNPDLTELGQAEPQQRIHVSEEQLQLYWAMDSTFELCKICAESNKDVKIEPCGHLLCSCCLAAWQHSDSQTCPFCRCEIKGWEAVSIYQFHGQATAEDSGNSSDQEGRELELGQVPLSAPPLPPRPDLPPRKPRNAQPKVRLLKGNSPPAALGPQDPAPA
# Sequence of UniProt P34972 (whole entry, unmodified, looked up): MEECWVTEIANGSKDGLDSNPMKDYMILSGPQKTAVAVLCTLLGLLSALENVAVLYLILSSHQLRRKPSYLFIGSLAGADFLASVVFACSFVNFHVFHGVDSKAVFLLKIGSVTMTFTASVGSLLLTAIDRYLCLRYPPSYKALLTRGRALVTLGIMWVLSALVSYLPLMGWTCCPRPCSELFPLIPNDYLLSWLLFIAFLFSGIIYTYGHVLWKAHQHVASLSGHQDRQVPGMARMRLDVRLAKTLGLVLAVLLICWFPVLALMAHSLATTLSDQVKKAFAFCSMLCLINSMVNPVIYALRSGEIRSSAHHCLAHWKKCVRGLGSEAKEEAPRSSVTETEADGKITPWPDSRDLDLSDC
# Sequence of UniProt P21554 (whole entry, unmodified, looked up): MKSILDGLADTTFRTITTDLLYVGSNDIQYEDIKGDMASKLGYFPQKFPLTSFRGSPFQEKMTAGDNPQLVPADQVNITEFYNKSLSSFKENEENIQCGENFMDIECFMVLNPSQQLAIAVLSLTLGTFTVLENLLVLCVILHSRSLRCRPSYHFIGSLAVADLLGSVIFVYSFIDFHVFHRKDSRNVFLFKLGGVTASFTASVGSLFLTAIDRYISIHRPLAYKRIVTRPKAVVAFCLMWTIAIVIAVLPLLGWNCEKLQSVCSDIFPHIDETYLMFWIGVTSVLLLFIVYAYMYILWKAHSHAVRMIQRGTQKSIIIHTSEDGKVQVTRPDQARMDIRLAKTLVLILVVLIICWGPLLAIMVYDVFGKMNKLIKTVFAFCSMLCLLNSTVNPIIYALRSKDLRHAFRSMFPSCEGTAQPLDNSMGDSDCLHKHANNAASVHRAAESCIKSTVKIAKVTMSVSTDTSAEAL
# Sequence of UniProt P18508 (whole entry, looked up): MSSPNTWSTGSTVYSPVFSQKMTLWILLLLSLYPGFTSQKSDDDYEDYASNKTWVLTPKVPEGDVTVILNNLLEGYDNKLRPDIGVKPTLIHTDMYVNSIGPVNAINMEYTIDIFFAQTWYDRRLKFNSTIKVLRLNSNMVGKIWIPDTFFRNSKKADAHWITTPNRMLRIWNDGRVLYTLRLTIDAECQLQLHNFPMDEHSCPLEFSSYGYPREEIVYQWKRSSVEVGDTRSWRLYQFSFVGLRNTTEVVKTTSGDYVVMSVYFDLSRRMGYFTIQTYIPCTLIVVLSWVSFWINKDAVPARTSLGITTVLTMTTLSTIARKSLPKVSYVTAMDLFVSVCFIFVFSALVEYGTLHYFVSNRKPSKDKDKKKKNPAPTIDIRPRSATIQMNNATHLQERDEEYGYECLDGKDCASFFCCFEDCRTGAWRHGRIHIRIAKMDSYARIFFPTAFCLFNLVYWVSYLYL
# Sequence of UniProt O60656 (whole entry, looked up): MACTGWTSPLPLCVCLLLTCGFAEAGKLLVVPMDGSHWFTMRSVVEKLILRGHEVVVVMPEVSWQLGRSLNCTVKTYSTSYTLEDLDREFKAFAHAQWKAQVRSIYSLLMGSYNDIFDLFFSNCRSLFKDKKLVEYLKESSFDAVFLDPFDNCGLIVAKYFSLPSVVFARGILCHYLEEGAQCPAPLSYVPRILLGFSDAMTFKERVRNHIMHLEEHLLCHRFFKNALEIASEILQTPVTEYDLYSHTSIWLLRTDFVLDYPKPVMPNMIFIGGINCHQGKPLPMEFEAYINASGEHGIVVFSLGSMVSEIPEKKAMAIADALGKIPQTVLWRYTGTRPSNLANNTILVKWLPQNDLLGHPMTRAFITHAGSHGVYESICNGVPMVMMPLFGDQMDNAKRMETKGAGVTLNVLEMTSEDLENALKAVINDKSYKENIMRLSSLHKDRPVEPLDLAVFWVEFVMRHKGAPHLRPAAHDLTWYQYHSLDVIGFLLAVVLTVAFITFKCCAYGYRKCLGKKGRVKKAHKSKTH
# Sequence of UniProt P01901 (whole entry, looked up): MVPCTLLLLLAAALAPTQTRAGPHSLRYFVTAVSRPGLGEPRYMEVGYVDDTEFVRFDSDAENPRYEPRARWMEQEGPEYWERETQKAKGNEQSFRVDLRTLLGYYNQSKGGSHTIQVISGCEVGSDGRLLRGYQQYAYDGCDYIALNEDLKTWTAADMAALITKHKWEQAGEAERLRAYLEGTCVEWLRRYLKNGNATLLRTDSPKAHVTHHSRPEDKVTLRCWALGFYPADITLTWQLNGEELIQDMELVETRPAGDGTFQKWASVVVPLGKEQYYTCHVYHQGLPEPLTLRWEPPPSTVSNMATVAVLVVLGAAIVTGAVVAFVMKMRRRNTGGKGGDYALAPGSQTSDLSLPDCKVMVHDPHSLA
# Sequence of UniProt P33261 (whole entry, looked up): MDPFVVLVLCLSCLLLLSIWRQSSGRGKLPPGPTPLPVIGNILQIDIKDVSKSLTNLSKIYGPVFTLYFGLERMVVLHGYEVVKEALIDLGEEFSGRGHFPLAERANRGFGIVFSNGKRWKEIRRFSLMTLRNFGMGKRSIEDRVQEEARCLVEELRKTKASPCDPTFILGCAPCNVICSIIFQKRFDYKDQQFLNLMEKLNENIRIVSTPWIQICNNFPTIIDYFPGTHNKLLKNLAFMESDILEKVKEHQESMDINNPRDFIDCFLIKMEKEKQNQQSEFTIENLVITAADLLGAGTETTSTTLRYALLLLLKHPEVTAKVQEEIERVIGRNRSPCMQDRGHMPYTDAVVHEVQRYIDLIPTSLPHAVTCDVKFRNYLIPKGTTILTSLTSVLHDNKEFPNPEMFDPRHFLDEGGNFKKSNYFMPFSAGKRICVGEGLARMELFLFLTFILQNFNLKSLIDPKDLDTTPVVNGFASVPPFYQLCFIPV
# Sequence of UniProt P30874 (whole entry, looked up): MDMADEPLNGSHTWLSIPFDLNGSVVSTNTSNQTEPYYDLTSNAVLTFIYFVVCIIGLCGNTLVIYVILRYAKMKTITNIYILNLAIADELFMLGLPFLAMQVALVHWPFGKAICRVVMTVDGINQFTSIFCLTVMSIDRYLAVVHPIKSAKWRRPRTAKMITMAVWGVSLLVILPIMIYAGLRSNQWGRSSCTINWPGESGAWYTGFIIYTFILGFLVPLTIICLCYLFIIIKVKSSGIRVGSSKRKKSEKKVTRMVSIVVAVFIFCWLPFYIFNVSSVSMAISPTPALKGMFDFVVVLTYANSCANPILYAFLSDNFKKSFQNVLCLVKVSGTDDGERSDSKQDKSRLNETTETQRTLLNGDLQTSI
# Sequence of UniProt P19969 (whole entry, looked up): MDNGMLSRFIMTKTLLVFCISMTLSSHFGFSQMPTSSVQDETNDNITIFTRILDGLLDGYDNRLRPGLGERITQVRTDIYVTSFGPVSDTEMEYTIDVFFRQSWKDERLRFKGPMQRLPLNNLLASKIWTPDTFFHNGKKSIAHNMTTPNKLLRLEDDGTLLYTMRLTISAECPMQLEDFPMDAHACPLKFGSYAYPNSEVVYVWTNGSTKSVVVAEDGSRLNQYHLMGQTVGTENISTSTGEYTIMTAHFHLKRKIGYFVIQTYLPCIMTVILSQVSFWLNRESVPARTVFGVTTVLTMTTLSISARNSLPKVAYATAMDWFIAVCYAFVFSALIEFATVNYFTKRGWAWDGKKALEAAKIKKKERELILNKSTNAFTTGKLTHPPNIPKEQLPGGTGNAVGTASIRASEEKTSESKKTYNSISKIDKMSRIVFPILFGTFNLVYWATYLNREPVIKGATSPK
SMILES,target,assay,system,conditions,measurement,value
Cc1nc(=O)c2cc(CN(C)c3ccc(C(=O)N[C@@H](CCC(=O)O)c4nnn[nH]4)s3)ccc2[nH]1,4'-phosphopantetheinyl transferase PptT,"enzyme activity, inhibitor, fluorescence polarization",,enzyme 100 nM,IC50,0.07 µM
CC[C@H](C)[C@H](NC(=O)[C@@H](NC(=O)[C@@H](N)CO)[C@@H](C)CC)C(=O)N[C@@H](CC(N)=O)C(=O)N[C@@H](Cc1ccccc1)C(=O)N[C@@H](CCC(=O)O)C(=O)N[C@@H](CCCCN)C(=O)N[C@@H](CC(C)C)C(=O)O,"H-2 class I histocompatibility antigen, K-B alpha chain, 25 (H2-K1, Mus musculus, UniProt P01901)",,,37 °C,Kd,0.0822 µM
CC(C)(C)OC(=O)NCCC[C@H](NC(=O)c1ccc(NCc2ccc3nc(N)nc(N)c3c2Cl)cc1)C(=O)O,folA,"enzyme activity, inhibitor",,,IC50,0.0231 µM
CCC1CCc2c(sc3nc(SCCCN4CCCCC4)nc(N)c23)C1 (racemic),eis,inhibitor,,,IC50,0.91 ± 0.13 µM
C#CCN(Cc1ccc2nc(N)nc(N)c2c1)c1ccc(C(=O)N[C@@H](CCC(=O)O)C(=O)O)cc1,folA,"enzyme activity, inhibitor",,,IC50,0.0033 µM
O=S(=O)(O)CC1CSSCC(CS(=O)(=O)O)SS1 (stereo not drawn),"Response regulator PhoP (Mycobacterium tuberculosis, UniProt P71814)","binding, LSPR",,,Kd,18.4 ± 4.3 µM
CCCCCn1cc(C(=O)c2ccc3c(c2)CC(C)(C)C3)c2ccccc21,"Cannabinoid receptor 1 (CNR1, Homo sapiens, UniProt P21554, L193I)","G protein activation, agonist, BRET",,,EC50,0.708 µM
Cc1nc(=O)c2cc(CN(C)c3ccc(C(=O)NCCC[S+]([O-])c4ccccc4O)s3)ccc2[nH]1 (stereo not drawn),4'-phosphopantetheinyl transferase PptT,"enzyme activity, inhibitor, fluorescence polarization",,enzyme 100 nM,IC50,0.22 µM
CSCC[C@H](NC(=O)[C@@H]1CSSC[C@H](NC(=O)[C@H](CCCCN)NC(=O)[C@H](Cc2ccc(O)cc2)NC(=O)CNC(=O)[C@@H](N)CC(C(=O)O)C(=O)O)C(=O)N[C@@H](C(C)C)C(=O)N[C@H](Cc2c[nH]c3ccccc23)C(=O)N[C@@H](CCCCN)C(=O)N[C@@H]([C@@H](C)O)C(=O)N1)C(=O)N1C[C@H](O)C[C@H]1C(=O)N[C@@H](C)C(=O)O,"Somatostatin receptor type 2 (SSTR2, Homo sapiens, UniProt P30874)","β-arrestin recruitment, agonist",,,EC50,> 300 µM
CCCCCn1cc(C(=O)c2cccc3ccccc23)c2ccccc21,"Cannabinoid receptor 2 (CNR2, Homo sapiens, UniProt P34972)","G protein activation, agonist, BRET",,,EC50,0.0038 µM
O=C1CC(=O)N(c2ccccc2)c2cc(Cl)ccc2N1,"Gabrg2/Gabra5, with β2 subunit (Rattus norvegicus, UniProt P18508+P19969)","GABA current potentiation, positive allosteric modulator, whole-cell patch clamp",HEK293,together with: GABA at EC10,EC50,0.58 ± 0.18 µM
"CCCCCc1cc(O)c2c(c1)OC(C)(C)C1CCC(C)=CC21 (single isomer, unassigned; (-))","UDP-glucuronosyltransferase 1A9 (UGT1A9, Homo sapiens, UniProt O60656)",inhibitor,"HEK293 overexpressing UGT1A9, recombinant UGT1A9 microsomes","pH 7.4, together with: acetaminophen glucuronidation",IC50,0.49 ± 0.15 µM
CC(C)(C)C1CCc2c(sc3nc(SCCN4CCCC4)nc(N)c23)C1 (stereo not drawn),eis,inhibitor,,,IC50,23 ± 5 µM
Cc1nc(=O)c2cc(CN(C)c3ccc(C(=O)NCCCc4nn[nH]n4)s3)ccc2[nH]1,4'-phosphopantetheinyl transferase PptT,"enzyme activity, inhibitor, fluorescence polarization",,enzyme 100 nM,IC50,1.01 µM
CCC1CCc2c(sc3nc(SCCN4CCCC4)nc(N)c23)C1 (stereo not drawn),eis,inhibitor,,,IC50,> 200 µM
COC(=O)[C@@H](CCCNC(=O)OC(C)(C)C)NC(=O)c1ccc(NCc2ccc3nc(N)nc(N)c3c2Cl)cc1,folA,"enzyme activity, inhibitor",,,IC50,0.0833 µM
CC(=O)NCCCC[C@H](NC(=O)CNC(=O)CNC(=O)[C@@H](NC(=O)[C@H](CO)NC(=O)[C@H](CCCCN)NC(C)=O)[C@@H](C)O)C(=O)N[C@@H](C)C(=O)N1CCC[C@H]1C(N)=O,"Bromodomain adjacent to zinc finger domain protein 2B, bromodomain (BAZ2B, Homo sapiens, UniProt Q9UIF8)","binding, ITC",,pH 7.5,Kd,> 2000 µM
CC(C)(C)C1CCc2c(sc3nc(SCC(=O)NCCN4CCCCC4)nc(N)c23)C1 (stereo not drawn),eis,inhibitor,,,IC50,10 ± 4 µM
CCCCCn1cc(C(=O)c2cccc3c2CC(C)(C)C3)c2ccccc21,"Cannabinoid receptor 1 (CNR1, Homo sapiens, UniProt P21554, I267L)","G protein activation, agonist, BRET",,,EC50,0.115 µM
Cc1nc2ccc(CN(C)c3ccc(C(=O)N[C@H](CCC(=O)O)C(=O)O)s3)cc2c(=O)[nH]1,4'-phosphopantetheinyl transferase PptT,"enzyme activity, inhibitor, FP",,,IC50,0.073 µM
CCCCCn1cc(C(=O)c2ccc3ccccc3c2)c2ccccc21,"Cannabinoid receptor 2 (CNR2, Homo sapiens, UniProt P34972, V261L)","G protein activation, agonist, BRET",,,EC50,0.832 µM
"CCCCCc1cc(O)c2c(c1)OC(C)(C)C1CCC(C)=CC21 (single isomer, unassigned; (-))","Cytochrome P450 2C19 (CYP2C19, Homo sapiens, UniProt P33261)","inhibitor, probe substrate","recombinant microsomes, HEK293","unbound, corrected for fu,inc, together with: omeprazole",Ki,56 ± 18 nM
CCC1CCc2c(sc3nc(SCCN4CCCCC4)nc(N)c23)C1 (stereo not drawn),eis,inhibitor,,,IC50,5.4 ± 0.5 µM
CC[C@H](C)[C@H](NC(=O)[C@@H]1CCCN1C(=O)[C@H](C)NC(=O)CNC(=O)[C@@H]1CCCN1C(=O)[C@H](CCC(=O)O)NC(=O)CN)C(=O)N[C@@H](CC(=O)O)C(=O)N[C@@H](Cc1ccc(O)cc1)C(=O)N[C@@H](CC(=O)O)C(=O)N[C@@H](CCC(=O)O)C(=O)N[C@@H](Cc1ccc(O)cc1)C(=O)NCC(=O)N[C@@H](CC(=O)O)C(=O)N[C@@H](CO)C(=O)N[C@@H](CO)C(=O)N[C@@H](CCC(=O)O)C(=O)N[C@@H](CCC(=O)O)C(=O)N[C@H](C(=O)NCC(=O)NCC(=O)N[C@@H](C)C(=O)N[C@@H](CCC(=O)O)C(=O)N[C@H](C(=O)N[C@@H](C)C(=O)N[C@@H](CCC(N)=O)C(=O)N1CCC[C@H]1C(=O)N[C@@H](CCCCN)C(=O)N[C@@H](CC(C)C)C(=O)N[C@@H](Cc1ccc(O)cc1)C(=O)N[C@@H](CCC(N)=O)C(=O)N[C@@H](CCCNC(=N)N)C(=O)NCC(=O)N[C@@H](CCC(=O)O)C(=O)NCC(=O)NCC(=O)N[C@@H](CC(N)=O)C(=O)NCC(=O)N[C@@H](CCSC)C(=O)N[C@@H](CCC(=O)O)C(=O)N1CCC[C@H]1C(=O)N[C@H](C(=O)N1CCC[C@H]1C(=O)N[C@@H](CCC(=O)O)C(=O)N[C@@H](CC(=O)O)C(=O)N[C@@H](Cc1ccc(O)cc1)C(=O)N[C@@H](CC(C)C)C(=O)N[C@@H](CCC(N)=O)C(=O)O)[C@@H](C)CC)C(C)C)C(C)C,"Prothrombin (F2, Homo sapiens, UniProt P00734)","enzyme activity, inhibitor, absorbance",,pH 8,Ki,0.001 nM
Nc1nc(SCC(=O)NCCN2CCOCC2)nc2sc3c(c12)CCC3,eis,inhibitor,,,IC50,17 ± 1 µM
COc1ccc2c(c1)c(C(=O)O)c(C)n2Cc1ccccc1,E3 ubiquitin-protein ligase CBL-C,"binding, NMR",,,Kd,600 µM
Nc1nc(SCCN2CCCC2)nc2sc3c(c12)CCCC3,eis,inhibitor,,,IC50,0.99 ± 0.06 µM
Cc1nc(=O)c2cc(CN(C)c3ccc(C(=O)NCCCS(N)(=O)=O)s3)ccc2[nH]1,4'-phosphopantetheinyl transferase PptT,"enzyme activity, inhibitor, fluorescence polarization",,enzyme 100 nM,IC50,0.76 µM
Nc1nc(SCCCN2CCCCC2)nc2sc3c(c12)CCCC3,eis,inhibitor,,,IC50,0.17 ± 0.04 µM
O=C(O)c1cn(Cc2ccccc2F)c2ccccc12,E3 ubiquitin-protein ligase CBL-C,"binding, NMR",,,Kd,610 µM
